# Experimental data collected from several papers.
# Parts stem from different laboratories: compare values within a part only. Positions count from the first letter of the parent shown.

# Study 1 — method: DHFR PCA, deep sequencing; matrix: yeast; together with: (+)-ABA 0.39 µM; relative to: wild-type fitted maximum; reading: higher = stronger binding
# Target: ABI1, truncated, D143A, DHFR fusion (Arabidopsis thaliana)
# Setting: methotrexate growth selection, single substitutions
# Starting sequence: PYL1, truncated, DHFR fusion (Arabidopsis thaliana); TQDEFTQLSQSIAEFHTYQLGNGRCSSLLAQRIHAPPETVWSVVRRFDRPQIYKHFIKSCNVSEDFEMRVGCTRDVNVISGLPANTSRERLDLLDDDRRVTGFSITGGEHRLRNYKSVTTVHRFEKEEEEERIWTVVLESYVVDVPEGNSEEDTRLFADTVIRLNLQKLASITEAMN
Change,relative binding score
V43S,-0.202%
S26Y,12.4%
H34E,48.4%
V145A,-10.9%
H34F,37.1%
D92C,5.7%
T6N,45%
A158H,25.8%
T101A,12.2%
E89S,-5.45%
E64Y,7.56%
S59R,12.7%
L28F,2.73%
D97F,7.17%
T154V,51.5%
D159N,33.6%
D159Y,-5.92%
R111M,11.4%
R69H,21%
T86W,90%
F66R,5.99%

# Study 2 — method: RNA Bind-n-Seq; form: RNA; matrix: in vitro; tested at: not given; relative to: input RNA pool; reading: higher = stronger binding
# Target: RING finger protein unkempt homolog, zinc fingers 1-6, GST-SBP tag (UNK, Homo sapiens, UniProt Q9C0B0, residues 30-357)
# UniProt Q9C0B0, sequence (30-357, looked up): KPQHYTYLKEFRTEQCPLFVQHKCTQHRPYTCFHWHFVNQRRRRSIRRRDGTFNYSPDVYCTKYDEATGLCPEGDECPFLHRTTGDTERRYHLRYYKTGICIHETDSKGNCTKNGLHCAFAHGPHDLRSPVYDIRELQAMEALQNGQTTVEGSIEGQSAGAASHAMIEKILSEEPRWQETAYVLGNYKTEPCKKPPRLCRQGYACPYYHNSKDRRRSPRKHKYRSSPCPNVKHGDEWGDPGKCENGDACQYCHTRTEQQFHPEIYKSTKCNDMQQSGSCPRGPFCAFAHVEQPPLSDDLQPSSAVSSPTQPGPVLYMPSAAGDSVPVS
# Setting: RNA with constant flanks, human and mouse sites, ends assumed
# Shared flanks, not repeated: GGGAGUUCUACAGUCCGACGAUC … CAACAGAGGAUUGAGCAUCA
Strand,bound/input enrichment
AGCGGCUACAAGACCCUGGGUUCACUCCCCAGAACCACCAGAGGGUAAACACCAGACCUCUAGGUAAAAAUGAUAAAGUUAUUUUCUUGUUAUACAGUUUAGAGUGUUGCCUUUCACAUU,0.577 ratio
AUUAAGCAGGCUCUUCCCCAGUACGUGUUUUCUGAGCCAUGCAUACCCUCUCCUUGGCCUUAGGUUUACUCUCAAGUGUUCCCUCUAUUCUCAUGCGUCCCACUUUGGGUCUGUACAAUC,0.298 ratio
CCACAGGACAUUGAGUGUUGUGGGGCCCUAGAAUACUACGACAAAGCCUUUGACCGCAUCACCACGAGGAGUGAGAAGCCACUGCGGAGCAUCAAGCGCAUCUUCCACACUGUCACCACC,0.224 ratio
CCUGAGCUGUUCACAAAGAGAGAACUAGGCAAGCCUAAGAACGAUGACACUCCUGAAGACUUUCUGACAGACCAACAGGAUGAGAAGCCGGAGCAUUCAGAAGAGAAGAGCUUUAGAGAG,0.27 ratio
GAGGACACGUGGUCCGGGUGCAUAAUGGGAGACACUGGCUAUUAUCUUCCUAAAAAGUUCACCCAGUGUAAUAUUGAAGAGUAUCAUGACUUCCUGAAUAGUGGAGGUGGUGCCUGCCUU,0.422 ratio
GGGAUUUUUAUGUUAACUUUUUUCAUGGCAUUCCUCUUCAACUGGAUUGGGUUUUUCUUGUCUUUUUGCCUGACCACCUCAGCUGCGGGAAGGUAUGGGGCCAUCUCAGGAUUUGGUCUU,0.15 ratio
UCUUUUUAGUGGAAGACAGACCAUAAUCCCAGUGUGAGUGAAAUUGAUUGUUUCAUUUAUUACCGUUUUGGCUGGGGGUUAGUUCCGACACCUUCACAGUUGAAGAGCAGGCAGAAGGAG,0.297 ratio
GAGGUGUUGGAAGCCUUGUGUGAUGGUAGCCUAGGAGACUGUAAAGAAGCUGCCGAAGCCUACAGAGCAAGUUGUCAUAAGCUUUUCCCUUAUGCUUUGGCUUUCAUGCCUCCUGGAUAC,0.108 ratio
GGUGUCUCCAGGGACCCUCGGAGUACUUGUGGGAUCUAAAGUUGAUUCAAGAUGAUUUCUGGGAUUUGAAAUUACCCAGUGGGAAGCAUAUACAUGCAUACAAAUACUUAUGUACAUUAU,0.142 ratio
UUUUGAACAUUUUGCCCCACUACACUGUUUUGGGGAUAGCUGGGUUAAGCAAGUUAAAGAUAUUUACAUUUAUAUUGGAAUUUUAGCAACUUUUUUUCAGGUUAAAUAUAUAAUUUCAAG,3.08 ratio
CCUGCACGCCCCGAGGCGGACCCCGGCUCUGACUGCUCCCCUGGCCGCGGGCUUCUCGACUGGGACGCGGCGCGAGGAGGGAGCGCGGCGGCCCCGAGUCUCCCUGAGCCAUGGGCAACG,0.161 ratio

# Study 3 — method: protein binding microarray; form: double-stranded DNA, one strand shown; matrix: in vitro; tested at: not given; relative to: not given; reading: higher = stronger binding
# Target: Histone acetyltransferase KAT6A, winged helix 1, GST fusion (KAT6A, Homo sapiens, UniProt Q92794, residues 1-85)
# Setting: 8-mer, flanks averaged, mean of 2 arrays, mostly near background
# Residues (chain): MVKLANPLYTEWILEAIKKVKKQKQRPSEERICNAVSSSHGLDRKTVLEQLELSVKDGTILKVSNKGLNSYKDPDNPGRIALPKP
Strand,E-score
CAGGCGGG,0.304
GCCGAAAC,0.0922
AAGCGCTG,0.226
ACAGCGTG,0.111
CGAACCTA,0.0783
AAACACCG,0.283
CTTTCACC,-0.0175
AAGTGCCG,0.194
CGGATTCC,0.248
CATTATCA,-0.109
CTCATGTA,0.0296
ACGCATCC,0.186
ACGCGGCC,0.305
AAGCGCCC,0.363
TCGGGCAA,0.039
AATTCACA,-0.083
AATCACCC,-0.246
ACAGCAGT,-0.177
AGTGCCAC,-0.226

# Study 4 — method: protein-binding microarray; form: double-stranded DNA, one strand shown; matrix: in vitro; tested at: 250 nM; setting: 60-bp whole probe; together with: salmon DNA 0.4 mg/ml; relative to: random background probes; reading: higher = stronger binding; shared flanks, not repeated: GCCTAGCAC … GTCTTGATTCGCTTGACGCTGCTG
# Target: Interferon regulatory factor 5, full length, phosphomimetic (IRF5, Homo sapiens, UniProt Q13568-2, residues 1-514, K96S/S451D/S453D/S456D/S462D)
Strand,log fluorescence
TTAGGTATCGACTATCGGTAAGTGCTA,7.29 z-score
CTATCTCTGTTTTTGCTTTCGTGCTAG,3.47 z-score
TCAAAAATGGAAACTCGTACTGTGCTA,0.54 z-score
ATTGCTTCCTCTTTCTCTGCGTGCTAG,1.14 z-score
TCTTTTTATGCTTTCTTTAAGTGCTAG,1.74 z-score
GACGGTTTCGGGTAACGGGACGTGCTA,8 z-score
GACGATATCGGGTTTCGTGACGTGCTA,2.54 z-score
TCAAGCCTCTGTTTTGAACTGTGCTAG,0.081 z-score
TTAGGTCTCTTTCTCCTTTAGTGCTAG,1 z-score
TTAGGTATCGAGTTTCGGTTAGTGCTA,9.56 z-score
TTAGGTTTGGGGTATCGGTTAGTGCTA,2.36 z-score
TCATCTTTACTGCTCCAACTGTGCTAG,0.364 z-score
TCACCTCTCATTCCAATACTGTGCTAG,0.573 z-score
TCAGTTCTCAGACTGGGACTGTGCTAG,-0.501 z-score
ATTTGCTTCAGGTTTACCAGAGTGCTA,0.288 z-score
GACGGTATCGACTATCGAGACGTGCTA,4.05 z-score

# Study 5 — target: CCNE1, cyclin fold, Cln2 fusion (human); method: yeast growth competition, sequencing; matrix: yeast; setting: weak parent motif; relative to: not given; reading: higher = stronger binding
# Starting sequence: RRM2 docking peptide (human); SKTARRIFQEPTE
Change,normalised enrichment score
SKTARRIFQEATE [P11A],0.0911
AKTARRIFQEPTE [S1A],0.627
SKTARRIFQEPTA [E13A],0.681
SKTARRIFQEPAE [T12A],0.598
SATARRIFQEPTE [K2A],0.426
SKTARRIFAEPTE [Q9A],0.74
